Results gathered from unrelated publications.
Every numbered part comes from another study and shows a few of its results, in no order. Positions count from the first letter of the parent shown.

Study 1 — method: protein-binding microarray; molecule type: double-stranded DNA, one strand shown; matrix: in vitro; concentration: not given; reading: higher = stronger binding
Target: Protein max, full length (MAX, Homo sapiens, UniProt P61244-2, residues 1-151)
Notes: k-mer, scored over probes, only values ≥0.25
`CGTGTTGA` gave an E-score of 0.303.
`CCATGGGG` gave an E-score of 0.376.
`ACACATGC` gave an E-score of 0.462.
The E-score of `CACATGAA` is reported as 0.358.
`CATATGCC` gave an E-score of 0.314.
With `CACGTGCG` the E-score was 0.496.
`CGCACGAG` gave an E-score of 0.43.
`ATGTGGGC` has an E-score of 0.332.

Study 2 — observed: peptide-MHC binding; molecule type: peptide; concentration: concentration not given
Target: HLA class I histocompatibility antigen, A alpha chain, allele A*80:01 (Homo sapiens, UniProt P04439)
For `DEEAINLFH`, binding read “inactive”.
For `GPSPSHKSV`, binding read “inactive”.
Under binding, `FTFERSKIK` is recorded as “inactive”.

Study 3 — target: UBE2D3 UBC core domain (UniProt P61077); method: yeast two-hybrid; matrix: yeast; notes: mostly zero background; relative to: not given; reading: higher = stronger interaction
B1: TRIM63 RING domain (UniProt Q969Q1); chain PMENLEKQLICPICLEMFTKPVVILPCQHNLCRKCANDIFQAANPYWTSRGSSVSMSGGRFRCPTCRHEVIMDRHGV
Residues (chain): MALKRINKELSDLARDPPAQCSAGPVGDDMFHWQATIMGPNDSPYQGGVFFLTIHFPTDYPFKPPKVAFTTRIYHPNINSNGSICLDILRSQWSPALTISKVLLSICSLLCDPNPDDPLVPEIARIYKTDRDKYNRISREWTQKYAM
`QLRRLQEERTCKVCMDKEVSIVFIPCGHLVVCKDCAPSLRKCPICRSTIKGTVRTF (BIRC3 RING domain (UniProt Q13489))`: “lacZ reporter activity” 0.
For `QLQDIKEQTMCPVCLDRLKNMIFLCGHGTCQLCGDRMSECPICRKAIERRILLY (MIB1 RING domain (UniProt Q86YT6))`, “lacZ reporter activity” read 10500.
`B1 (TRIM63 RING domain)` — result for “lacZ reporter activity”: 0.
For `DAIPSLSECQCGICMEILVEPVTLPCNHTLCKPCFQSTVEKASLCCPFCRRRVSSWTRYH (RNF168 RING domain (UniProt Q8IYW5))`, “lacZ reporter activity” read 0.

Study 4 — target: CCNE1, cyclin fold, Cln2 fusion (human); method: yeast growth competition, sequencing; matrix: yeast; notes: strong parent motif; relative to: not given; reading: higher = stronger binding
Parent: viral docking peptide; KGVKRKLFAEDSS; partner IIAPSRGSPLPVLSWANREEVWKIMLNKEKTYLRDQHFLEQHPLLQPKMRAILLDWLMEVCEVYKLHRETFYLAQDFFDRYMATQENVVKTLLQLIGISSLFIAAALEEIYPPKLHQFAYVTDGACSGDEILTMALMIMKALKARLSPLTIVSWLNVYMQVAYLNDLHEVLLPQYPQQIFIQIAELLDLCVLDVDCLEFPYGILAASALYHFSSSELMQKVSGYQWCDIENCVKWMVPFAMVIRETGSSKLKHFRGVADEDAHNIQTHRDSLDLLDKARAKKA
`F8Y` — result for “normalised enrichment score”: 3.39.
For `F8V`, “normalised enrichment score” read 0.535.
For `K4Q`, “normalised enrichment score” read 5.86.
`R5F`: “normalised enrichment score” 0.495.
For `D11T`, “normalised enrichment score” read 7.04.
`V3T`: “normalised enrichment score” 5.56.
`V3C`: “normalised enrichment score” 5.95.
Under “normalised enrichment score”, `L7F` is recorded as 0.511.
`A9C`: “normalised enrichment score” 7.31.
`D11E`: “normalised enrichment score” 7.41.
`E10S` — result for “normalised enrichment score”: 6.67.
For `K4C`, “normalised enrichment score” read 7.04.
`S12C`: “normalised enrichment score” 7.5.
For `D11W`, “normalised enrichment score” read 6.41.
For `K4M`, “normalised enrichment score” read 6.04.
For `S12E`, “normalised enrichment score” read 6.95.
`L7S` — result for “normalised enrichment score”: 0.103.
For `L7Y`, “normalised enrichment score” read 0.09.
`K6W`: “normalised enrichment score” 5.16.
Under “normalised enrichment score”, `E10Q` is recorded as 6.7.
Under “normalised enrichment score”, `L7A` is recorded as 0.212.

Study 5 — method: RNA Bind-n-Seq; molecule type: RNA; matrix: in vitro; concentration: not given; notes: 4-mer, random 30-nt RNA, single round; added: RocA, ADP, phosphate; relative to: input library; reading: higher = stronger binding
Target: ATP-dependent RNA helicase DDX3X, helicase core (DDX3X, Homo sapiens, UniProt O00571, residues 132-607)
UniProt O00571, sequence (132-607, looked up): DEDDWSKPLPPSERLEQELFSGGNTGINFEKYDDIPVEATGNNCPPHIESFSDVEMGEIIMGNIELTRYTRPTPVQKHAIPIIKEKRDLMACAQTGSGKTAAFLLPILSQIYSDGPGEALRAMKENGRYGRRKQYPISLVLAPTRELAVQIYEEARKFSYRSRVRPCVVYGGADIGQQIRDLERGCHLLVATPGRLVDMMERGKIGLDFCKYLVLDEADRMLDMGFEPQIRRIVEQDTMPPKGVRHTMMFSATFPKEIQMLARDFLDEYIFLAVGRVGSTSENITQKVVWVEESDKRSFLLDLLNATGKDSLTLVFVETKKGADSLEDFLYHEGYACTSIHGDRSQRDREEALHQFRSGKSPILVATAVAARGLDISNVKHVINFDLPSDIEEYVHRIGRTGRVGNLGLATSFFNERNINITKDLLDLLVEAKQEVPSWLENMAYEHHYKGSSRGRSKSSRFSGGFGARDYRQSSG
The 4-mer enrichment of `GCCA` is reported as 0.729 fold.
The 4-mer enrichment of `AUCU` is reported as 0.701 fold.
The 4-mer enrichment of `CACG` is reported as 0.737 fold.
`GUAC` has a 4-mer enrichment of 0.773 fold.
`UUCG` gave a 4-mer enrichment of 0.839 fold.
`CCUA` has a 4-mer enrichment of 0.71 fold.
With `AACC` the 4-mer enrichment was 0.744 fold.
`GCUA` gave a 4-mer enrichment of 0.733 fold.

Repeated from above (study 5):
The 4-mer enrichment of `AUCU` is reported as 0.701 fold.
`GUAC` has a 4-mer enrichment of 0.773 fold.
`CCUA` has a 4-mer enrichment of 0.71 fold.
`UUCG` gave a 4-mer enrichment of 0.839 fold.
The 4-mer enrichment of `CACG` is reported as 0.737 fold.
The 4-mer enrichment of `GCCA` is reported as 0.729 fold.
`GCUA` gave a 4-mer enrichment of 0.733 fold.
